{"data": "Measurements of several laboratories", "note": "Parts stem from different laboratories: compare values within a part only."}
{"data": "Set 1", "target": "Histone acetyltransferase KAT6A, both winged helices, GST fusion (KAT6A, Homo sapiens, UniProt Q92794, residues 1-181)", "technique": "protein binding microarray", "molecule type": "double-stranded DNA, one strand shown", "medium": "in vitro", "concentration": "not given", "setting": "8-mer, flanks averaged, mean of 2 arrays, mostly near background", "baseline": "not given", "direction": "higher = stronger binding", "Construct (chain)": "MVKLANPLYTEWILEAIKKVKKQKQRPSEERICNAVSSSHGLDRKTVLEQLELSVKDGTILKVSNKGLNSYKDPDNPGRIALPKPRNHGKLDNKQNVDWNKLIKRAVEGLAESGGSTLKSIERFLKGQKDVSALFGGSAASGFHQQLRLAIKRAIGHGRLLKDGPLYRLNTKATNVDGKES"}
{"Sequence": "TGATACAA", "E-score": -0.0505}
{"Sequence": "CTTCTAAA", "E-score": -0.185}
{"Sequence": "GTGAATGA", "E-score": -0.0896}
{"Sequence": "CTCGATAA", "E-score": -0.0538}
{"Sequence": "AAATGTTG", "E-score": -0.0637}
{"Sequence": "GTCTGAAA", "E-score": -0.0759}
{"Sequence": "GAAGTCAA", "E-score": -0.0529}
{"Sequence": "CTTCTTAA", "E-score": -0.127}
{"Sequence": "CCACCACC", "E-score": -0.177}
{"Sequence": "AAGGAAAA", "E-score": -0.11}
{"Sequence": "CACAGTAC", "E-score": -0.0343}
{"Sequence": "CTCAAGCC", "E-score": 0.0377}
{"Sequence": "CGCGTACA", "E-score": 0.306}
{"Sequence": "AGGTATCC", "E-score": -0.0414}
{"Sequence": "GTACATTA", "E-score": -0.017}
{"Sequence": "AATAATGA", "E-score": -0.0423}
{"Sequence": "GATTCCGC", "E-score": 0.165}
{"Sequence": "CTAGAATA", "E-score": -0.0263}
{"Sequence": "GAACGTGC", "E-score": 0.0588}
{"Sequence": "AAGAAACT", "E-score": -0.179}
{"Sequence": "TGAGTGCA", "E-score": -0.0684}
{"Sequence": "CTAAATTC", "E-score": -0.147}
{"Sequence": "CGTCTTTC", "E-score": 0.0105}
{"data": "Set 2", "target": "Prothrombin, mature alpha-thrombin (F2, Homo sapiens, UniProt P00734)", "technique": "aptamer microarray, sandwich", "molecule type": "DNA with 2'F-ANA", "medium": "in vitro", "concentration": "200 nM", "setting": "whole 15-mer aptamer, many near background", "together with": "Cy3 exosite-II aptamer, 400 nM", "direction": "higher = stronger binding", "sequence": "GGTTGGTGTGGTTGG"}
{"Modification": "2'F-ANA at 2 3 5 6 7 8 14", "mean fluorescence intensity": "51.8 a.u."}
{"Modification": "2'F-ANA at 1 2 3 4 8 9 10 12 15", "mean fluorescence intensity": "167 a.u."}
{"Modification": "2'F-ANA at 3 8 11 12 13 15", "mean fluorescence intensity": "1260 a.u."}
{"Modification": "2'F-ANA at 2 7 8 9 11 15", "mean fluorescence intensity": "445 a.u."}
{"Modification": "2'F-ANA at 2 3 5 7 9 10 11 12 13", "mean fluorescence intensity": "62 a.u."}
{"Modification": "2'F-ANA at 6 7 8 11 12 13 15", "mean fluorescence intensity": "604 a.u."}
{"Modification": "2'F-ANA at 1 3 4 5 6 8 11", "mean fluorescence intensity": "55.1 a.u."}
{"Modification": "2'F-ANA at 1 4 8 10 11 12 14", "mean fluorescence intensity": "48.8 a.u."}
{"Modification": "2'F-ANA at 2 4 5 6 8 12 14", "mean fluorescence intensity": "73.4 a.u."}
{"Modification": "2'F-ANA at 4 5 7 8 9 12 13 15", "mean fluorescence intensity": "97.4 a.u."}
{"Modification": "2'F-ANA at 1 2 5 6 7 8 9 11 12 14", "mean fluorescence intensity": "52.2 a.u."}
{"Modification": "2'F-ANA at 1 2 5 6 9 10 13 14 15", "mean fluorescence intensity": "71.5 a.u."}
{"Modification": "2'F-ANA at 3 5 7 8 9 10 14 15", "mean fluorescence intensity": "52.4 a.u."}
{"Modification": "2'F-ANA at 4 6 7 8 9 15", "mean fluorescence intensity": "264 a.u."}
{"Modification": "2'F-ANA at 5 7 8 9 12", "mean fluorescence intensity": "220 a.u."}
{"Modification": "2'F-ANA at 1 3 4 7 8 9 12 13 14 15", "mean fluorescence intensity": "89.7 a.u."}
{"Modification": "2'F-ANA at 1 2 5 8 9 12", "mean fluorescence intensity": "112 a.u."}
{"Modification": "2'F-ANA at 1 2 4 5 6 7 8 9 11", "mean fluorescence intensity": "57 a.u."}
{"Modification": "2'F-ANA at 2 6 7 10 11 13 14 15", "mean fluorescence intensity": "76.2 a.u."}
{"Modification": "2'F-ANA at 6 7 9 10 12 13", "mean fluorescence intensity": "199 a.u."}
{"Modification": "2'F-ANA at 1 3 5 6 7 8 10 12 13 14", "mean fluorescence intensity": "55.8 a.u."}
{"Modification": "2'F-ANA at 1 2 3 4 5 12 13 14", "mean fluorescence intensity": "68.5 a.u."}
{"Modification": "2'F-ANA at 1 4 6 9 12 15", "mean fluorescence intensity": "235 a.u."}
{"Modification": "2'F-ANA at 2 3 4 5 6 7 11 14", "mean fluorescence intensity": "55.5 a.u."}
{"Modification": "2'F-ANA at 3 7 8 10 12 13 15", "mean fluorescence intensity": "693 a.u."}
{"data": "Set 3", "target": "PABPC1L2, full length, GST fusion (mouse, UniProt A0ABA7IW68)", "technique": "RNAcompete", "molecule type": "RNA", "medium": "in vitro", "concentration": "20 nM", "setting": "7-mer, probes averaged, single round", "baseline": "mean of 7-mers", "direction": "higher = stronger binding", "Residues (chain)": "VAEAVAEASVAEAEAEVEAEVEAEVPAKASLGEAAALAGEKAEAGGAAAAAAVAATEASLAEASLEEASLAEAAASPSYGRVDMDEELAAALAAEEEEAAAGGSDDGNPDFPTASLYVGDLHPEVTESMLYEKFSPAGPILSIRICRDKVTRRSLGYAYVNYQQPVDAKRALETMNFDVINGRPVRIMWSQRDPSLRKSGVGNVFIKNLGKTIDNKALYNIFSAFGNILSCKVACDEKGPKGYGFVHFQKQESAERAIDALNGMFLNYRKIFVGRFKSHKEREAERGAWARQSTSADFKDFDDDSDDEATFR"}
{"Sequence": "GGUGCUG", "7-mer Z-score": 0.202}
{"Sequence": "GCCUUCC", "7-mer Z-score": -0.452}
{"Sequence": "GCAUAUG", "7-mer Z-score": -0.168}
{"Sequence": "UCAUAGG", "7-mer Z-score": -0.188}
{"Sequence": "GCCAUGA", "7-mer Z-score": -0.0881}
{"Sequence": "UUUUGAG", "7-mer Z-score": -0.19}
{"Sequence": "GAGUAUU", "7-mer Z-score": -0.233}
{"Sequence": "UUAAAGG", "7-mer Z-score": 0.24}
{"Sequence": "GUUAACG", "7-mer Z-score": -0.0591}
{"Sequence": "AACUUAG", "7-mer Z-score": 0.233}
{"Sequence": "GCAGAGC", "7-mer Z-score": -0.0736}
{"Sequence": "UUCUAUC", "7-mer Z-score": -0.344}
{"Sequence": "AUGGCUA", "7-mer Z-score": 0.104}
{"Sequence": "CGAAUCC", "7-mer Z-score": -0.206}
{"Sequence": "CAAGUCG", "7-mer Z-score": -0.282}
{"Sequence": "GCAUCGU", "7-mer Z-score": -0.166}
{"data": "Set 4", "target": "Sal-like protein 4, full length isoform B (SALL4, Homo sapiens, UniProt Q9UJQ4-2, residues 1-616)", "technique": "universal PBM", "molecule type": "double-stranded DNA, one strand shown", "medium": "in vitro", "concentration": "not given", "setting": "8-mer, flanks averaged, mean of replicates", "direction": "higher = stronger binding"}
{"Sequence": "AGGGTTAG", "E-score": -0.175}
{"Sequence": "AAGCGCGG", "E-score": -0.156}
{"Sequence": "ATGACCCC", "E-score": -0.0623}
{"Sequence": "ACGAACCT", "E-score": -0.0467}
{"Sequence": "CATACCGA", "E-score": 0.0863}
{"Sequence": "GTGTTGGA", "E-score": -0.0673}
{"Sequence": "AGACACTC", "E-score": -0.106}
{"Sequence": "CCCCGTTA", "E-score": -0.114}
{"Sequence": "CGAGCTCC", "E-score": -0.241}
{"Sequence": "CCCAGCTC", "E-score": -0.287}
{"Sequence": "CCATATCA", "E-score": 0.248}
{"Sequence": "TACTCACA", "E-score": 0.0879}
{"Sequence": "AAGCCCTT", "E-score": -0.0873}
{"Sequence": "ACAAAGGA", "E-score": 0.0744}
{"Sequence": "CACATTGA", "E-score": 0.213}
